Measured values pooled from the literature.
Every numbered part comes from another study and shows a few of its results, in no order. Changes are numbered by the printed parent chain.

Set 1 — technique: universal PBM; form: double-stranded DNA, one strand shown; sample: in vitro; concentration: not given; direction: higher = stronger binding
Target: Sal-like protein 4, full length isoform B (SALL4, Homo sapiens, UniProt Q9UJQ4-2, residues 1-616)
Notes: 8-mer, flanks averaged, mean of replicates
Target sequence (chain): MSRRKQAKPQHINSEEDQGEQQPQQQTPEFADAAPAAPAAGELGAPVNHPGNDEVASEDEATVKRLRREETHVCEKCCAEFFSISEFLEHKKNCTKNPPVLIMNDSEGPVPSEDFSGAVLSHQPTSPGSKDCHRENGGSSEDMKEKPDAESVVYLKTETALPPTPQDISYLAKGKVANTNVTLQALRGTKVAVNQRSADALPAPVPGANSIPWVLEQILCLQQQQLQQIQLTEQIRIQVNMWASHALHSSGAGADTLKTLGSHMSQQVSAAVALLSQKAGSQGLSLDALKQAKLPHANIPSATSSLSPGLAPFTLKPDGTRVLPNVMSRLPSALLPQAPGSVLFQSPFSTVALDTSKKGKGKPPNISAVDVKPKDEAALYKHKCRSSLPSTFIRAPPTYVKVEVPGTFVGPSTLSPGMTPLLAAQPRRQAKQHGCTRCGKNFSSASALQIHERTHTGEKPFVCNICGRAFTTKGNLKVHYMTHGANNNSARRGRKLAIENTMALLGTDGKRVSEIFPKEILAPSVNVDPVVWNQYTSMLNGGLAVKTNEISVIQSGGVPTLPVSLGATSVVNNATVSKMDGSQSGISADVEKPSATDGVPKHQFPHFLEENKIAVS
Strand	E-score
CCAATATC	0.148
ACTTAACA	0.0854
CTGTAACA	0.089
CAGGGCCG	-0.252
AATCATAG	0.27
GCGCCGCC	-0.341
TCCCCGCA	-0.234
AGAATGCG	-0.129
GAATTAAC	0.131
GCAATCAA	0.0502
CCAAATCA	0.0584
AAGACGTG	-0.0739
CGTTACGA	-0.0302
ATACGGGG	-0.0981
AAACCCAC	-0.036
ATTCCTCA	0.132
ATTTCTTG	0.282
CCGCTGTA	-0.04
ATCAAGAA	0.214
CGGGGGTA	-0.0333
TGTTTTAA	0.305
AGCTCGCC	-0.306
AGGCGGTA	-0.207
AACTTGTA	0.235

Set 2 — target: CCNB3, cyclin fold, Cln2 fusion (human); technique: yeast growth competition, sequencing; sample: yeast; notes: strong parent motif; reference: not given; direction: higher = stronger binding
Starting sequence: E2F1 docking peptide (human); PPVKRRLDFETDH; partner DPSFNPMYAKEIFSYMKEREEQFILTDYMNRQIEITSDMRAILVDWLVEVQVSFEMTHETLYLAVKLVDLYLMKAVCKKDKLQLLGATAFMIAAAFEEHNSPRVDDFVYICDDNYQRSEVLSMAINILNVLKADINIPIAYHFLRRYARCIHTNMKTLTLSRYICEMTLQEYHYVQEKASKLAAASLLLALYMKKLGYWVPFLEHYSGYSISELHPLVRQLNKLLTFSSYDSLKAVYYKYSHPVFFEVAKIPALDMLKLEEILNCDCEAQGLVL
Change	normalised enrichment score
PPYKRRLDFETDH [V3Y]	0.437
PPVKRHLDFETDH [R6H]	0.461
PPVKRRDDFETDH [L7D]	-0.0825
PPVKQRLDFETDH [R5Q]	-0.00208
PPVKRRLMFETDH [D8M]	2.12
PPVKRTLDFETDH [R6T]	3.18
PPVKRRLAFETDH [D8A]	1.69
PPVKRRLDAETDH [F9A]	0.0733
PPVKRALDFETDH [R6A]	0.73
PPVKRRLDFETWH [D12W]	2.74
PPVKRVLDFETDH [R6V]	3.67
PPVKRRLGFETDH [D8G]	0.403
PPVKKRLDFETDH [R5K]	0.874
PPVDRRLDFETDH [K4D]	0.0659
PPVKRRLDFEYDH [T11Y]	2.26
PPVKCRLDFETDH [R5C]	0.615
PHVKRRLDFETDH [P2H]	2.53
PRVKRRLDFETDH [P2R]	2.41
PPVCRRLDFETDH [K4C]	2.77
PPVKRRLKFETDH [D8K]	2.29
PPVYRRLDFETDH [K4Y]	0.216
PPVKRRLDFETIH [D12I]	3.24
PPVKRRLDDETDH [F9D]	-0.107
PPVKRRLDQETDH [F9Q]	0.549
PPVKRRLDCETDH [F9C]	-0.137

Set 3 — technique: RNA Bind-n-Seq; form: RNA; sample: in vitro; concentration: 200 nM; notes: whole 134-nt RNA, ends assumed; together with: 150 mM LiCl; reference: input library; direction: higher = stronger binding; each molecule: 7-deaza-guanosine replaces G
Target: Ras GTPase-activating protein-binding protein 1, full length (G3BP1, Homo sapiens, UniProt Q13283)
Sequence of UniProt Q13283 (whole entry, looked up): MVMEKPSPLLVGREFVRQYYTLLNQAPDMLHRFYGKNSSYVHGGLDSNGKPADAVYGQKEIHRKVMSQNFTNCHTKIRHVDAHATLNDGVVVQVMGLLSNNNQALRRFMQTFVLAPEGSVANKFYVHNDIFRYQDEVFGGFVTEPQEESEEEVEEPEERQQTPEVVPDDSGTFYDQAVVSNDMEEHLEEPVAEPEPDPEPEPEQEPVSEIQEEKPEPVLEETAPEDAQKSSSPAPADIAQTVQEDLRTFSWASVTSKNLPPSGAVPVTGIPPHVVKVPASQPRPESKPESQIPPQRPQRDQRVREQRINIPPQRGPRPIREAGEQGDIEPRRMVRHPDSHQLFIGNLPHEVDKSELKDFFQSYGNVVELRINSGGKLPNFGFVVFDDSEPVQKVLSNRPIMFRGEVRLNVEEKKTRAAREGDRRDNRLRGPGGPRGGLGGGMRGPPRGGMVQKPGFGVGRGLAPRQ
Shared flanks, not repeated: GGGAGUUCUACAGUCCGACGAUC … UGGAAUUCUCGGGUGUCAAGG
Strand	log2 enrichment
UCCUGUGCUACACAUCGUAUGUACCGAAUCAAAUUUUUUUAAACCCCCCCAAACCCAAAAAAGUAUUAUGUUACGCCGUUCGGAUCUGCA	1.3
UGGCCCUGGUGGCAUGCGGGGAGGAAGAGGUGGCCUCAUGGAUCGUGGUGGUCCCGGUGGAAUGUUCAGAGAUGGCCGUGGUGGAGACAG	0.095
AAAAUAAGCCUAAGAAAGAAUUAAUUAAAGUUCUGAUUCAGAGGGGAUAUGAUUCGGAUCCUGUGAAGGCCUGGAAAGAAGCCCAGCAAA	-1.63
AGUCCUGUGCUACACAUCGUAUGUACCGAAUCGGGGUUUUGGGGUUUUGGUUUUGGGGAAAGUAUUAUGUUACGCCGUUCGGAUCUGCAC	-0.404
CACAGACAACACGCACCCACACAGACACAGAAGGAAGGGGUUGGGAUGGGGACAGGGUGCACAGCAGGGCGGGGUAGGACCCCAGCCCCU	0.254
UAACUUUAGAGGAGGAUCUGAUGGAUAGGGCAGUGGACGUGGAUUUGGGGAUGGCUAUAAUGGGUAUGGAGGAGGACCUGGAGGUGGCAA	-0.345
AAGUCCUGUGCUACACAUCGUAUGUACCGAAUCGGCCCCGGGGCCCCGGGCCCCGGGAAAGUAUUAUGUUACGCCGUUCGGAUCUGCACU	-1.61
AAGUCCUGUGCUACACAUCGUAUGUACCGAAUCGGGAAAAAGGAAAAAGGAAAAAGGAAAGUAUUAUGUUACGCCGUUCGGAUCUGCACU	-0.214

Set 4 — technique: RNA Bind-n-Seq; form: RNA; sample: in vitro; concentration: 365 nM; reference: no-protein control; direction: higher = stronger binding
Target: RNA binding protein fox-1 homolog 2, RRM domain, GST-SBP tag (RBFOX2, Homo sapiens, UniProt O43251-10, residues 100-194)
Notes: natural RNA segment, single round, ends assumed
Shared flanks, not repeated: GGGAGUUCUACAGUCCGACGAUC … UGGAAUUCUCGGGUGCCAA
Target sequence (chain): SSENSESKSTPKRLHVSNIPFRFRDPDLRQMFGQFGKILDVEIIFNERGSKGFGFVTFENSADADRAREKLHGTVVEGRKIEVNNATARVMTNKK
Strand	RBNS enrichment (R)
UAAAAACAUUACAUUUAUUUAUCCAGAAAACUGUGAUUUUAGGAUUACCUAACAUUGCUGGUAAAUAUUUUCAACCUUUGUCCCCACAAAUUGGUAUUUUUAAAGAUGUA	0.521
AAAGAAGAGUUUGUGACUAUUCUCAUCUCUGUUUUGGACGUUUACUAGACUUUGAUUUCCUUAAUAGCCCAUUUCUGUUAACCUCUUAUCACUAAGAAAGAAAGGAAAGA	0.186
AGCUAGCAAGGCUUCUUCAGCUUAUUGACCAGCCAGGGUUUCUUCUUGCCUACUCCGGUGCCUCUACUUGACUGGCCAAUCAGCCCUUGAGGGGCAGGUUCCCCCAGGUG	0.245
AACUCACCAGCAGGUGUGCAGUAGGCAAGCUUGAAGGUGGCCCAUGCUUCUCUGUUGUCACACAACACCUUUCCCUGUUUCUCUUCAGUUGUCCUCUGAUAUUUUCACAG	0.249
CCUGCUCUCUCUGGCCUUGGGUCAUGAGGGUAUAAGGAAUAAACAUGGUGAGCUUGUUCUCCUUUUGAACCCCUUGUUCUUUUUUGUUACCGAGAGGAGGCAAGGUGCAG	0.51
UGAAUUGACGUUAAUGUGUUUUCACUGGAUUUUAUCUCUCUCAACUUCCUGCACUUAAAAUUUGAAACAGCAAAGGUUUGAGAUGAGAUGCUUGUGGCACACAGUUGGGU	0.374
UCCAGACAUCUCUGCUAACAAGCCUUUGGUAAGUCACUUCAGAUACUUUUCCUCCUUUUUACAAAGAGAGGGCUGGCUUAGUUAUUUGCCAAAGCCCCUUCCAGGCCUGA	0.262
CCUUGGGCUGUCACUGGGGACUGGCAGUGCCUAGUGAGAGAGAGCAUCAUACUUCAUGAUGUCAGAGUGUCUUGUCACGGUUUGGACUUAACUUCCCUCUAUAGUCAGCA	2.78

Repeated from above (set 1):
Strand	E-score
GCAATCAA	0.0502
CCAAATCA	0.0584
AAGACGTG	-0.0739
CGTTACGA	-0.0302
ATACGGGG	-0.0981
AAACCCAC	-0.036
